{"data": "Experimental data from different studies", "note": "Each numbered part is a random draw from the data of one study; scales do not carry over between parts."}
{"data": "Sample 1", "target": "Histone acetyltransferase KAT6A, winged helix 1, GST fusion (KAT6A, Homo sapiens, UniProt Q92794, residues 1-85)", "method": "protein binding microarray", "molecule type": "double-stranded DNA, one strand shown", "matrix": "in vitro", "concentration": "not given", "setting": "8-mer, flanks averaged, mean of 2 arrays, mostly near background", "reference": "not given", "reading": "higher = stronger binding", "Residues (chain)": "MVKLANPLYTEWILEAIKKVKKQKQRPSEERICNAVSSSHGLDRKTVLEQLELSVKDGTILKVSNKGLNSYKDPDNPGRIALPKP"}
{"Strand": "ATAGGGCA", "E-score": -0.265}
{"Strand": "AAAACGGG", "E-score": 0.23}
{"Strand": "ATCTCAGA", "E-score": -0.223}
{"Strand": "GCGTGACA", "E-score": 0.0871}
{"Strand": "CCACCAAC", "E-score": -0.135}
{"Strand": "AAACCCTT", "E-score": 0.0807}
{"Strand": "GCTAAGCA", "E-score": 0.154}
{"Strand": "ATGTTGTC", "E-score": -0.0251}
{"Strand": "GATCCTGA", "E-score": 0.00971}
{"Strand": "GATGTCAC", "E-score": 0.00751}
{"Strand": "ACACACGA", "E-score": -0.146}
{"Strand": "ATGCTATC", "E-score": -0.102}
{"Strand": "CAAGAAAA", "E-score": -0.161}
{"Strand": "AGGGGCAA", "E-score": -0.138}
{"Strand": "CATGCCAC", "E-score": -0.0459}
{"Strand": "GACGCATA", "E-score": 0.165}
{"Strand": "TAATCACA", "E-score": -0.2}
{"data": "Sample 2", "target": "RNA binding protein fox-1 homolog 2, RRM domain, GST-SBP tag (RBFOX2, Homo sapiens, UniProt O43251-10, residues 100-194)", "method": "RNA Bind-n-Seq", "molecule type": "RNA", "matrix": "in vitro", "concentration": "365 nM", "setting": "natural RNA segment, single round, ends assumed", "reference": "no-protein control", "reading": "higher = stronger binding", "Target sequence (chain)": "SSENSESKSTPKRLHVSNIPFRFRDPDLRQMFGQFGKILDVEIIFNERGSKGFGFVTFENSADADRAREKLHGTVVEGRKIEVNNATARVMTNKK"}
{"Strand": "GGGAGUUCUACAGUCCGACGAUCCCAAACAUGUCCAGUCCUCUUCUUCCCUCUGCUGGAACCUUUGGGGACACUCAAGGGUACAGUUUGACACUGAUCUGGUCCAUGAGGCUGCCCAGAGAAAGCACUGCUUCUGGAAUUCUCGGGUGCCAA", "RBNS enrichment (R)": 0.397}
{"Strand": "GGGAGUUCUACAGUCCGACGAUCUCCUCUUUUCAUAAAUGCUCUUGGACAUUAUUGGGCUUGCAGAGUUCCCUUAUUCUGGGGAUUACAAUGCUUUUAUCGUUUCAGGCUUCAUUUUAGCUUCAAAACAAGCUUGGAAUUCUCGGGUGCCAA", "RBNS enrichment (R)": 0.286}
{"Strand": "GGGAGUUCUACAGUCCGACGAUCUGGAUUUGGGCUGCCUUGGAAGUGCCUUUAUCUGCCUCUUCUGUGACAUUUUGAGGUCUGCUUAGCUAUGGCCCCCCUUUCCCAGAUGACCCCUUUCAUGGAAACGGUGUUGGAAUUCUCGGGUGCCAA", "RBNS enrichment (R)": 0.267}
{"Strand": "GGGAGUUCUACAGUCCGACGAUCCCUGAGAAAUCAGGACAUGGAAAUCAGAGCAUAUACAUAAGGAACUUAAUUUUAAUGUAAUCAUGUCUAAUGAUCCUCAUCUUCAUUCCUUGAGAUUACCCAAGUACCGUUGGAAUUCUCGGGUGCCAA", "RBNS enrichment (R)": 0.291}
{"Strand": "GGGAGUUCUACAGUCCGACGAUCUUUUAACCUGUCGUUAAGUGUUGUAACUUCAAAAAACCAAAAUGCUUAUUUUAAUGUGAUUUUUCUAAAACUAUUGAAAAAUUAAUAUUUCUAUAAUCUAUUAAAAAAAAUGGAAUUCUCGGGUGCCAA", "RBNS enrichment (R)": 0.92}
{"Strand": "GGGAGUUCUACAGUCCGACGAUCUACAUUUUGUUGGGAAGCUGGAUAAGUUUUAGGUGCAGGACCCCAAAUGUUCUGAGACCUUUGGGGCCAUUUAUUACUUUGUACAAGCCCAAUAAUCCUCUCUUUUCUGCUGGAAUUCUCGGGUGCCAA", "RBNS enrichment (R)": 0.328}
{"Strand": "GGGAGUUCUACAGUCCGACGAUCAGGCACAGGAAAGCAAAGGAAAUGUGCCACCCUUUAGCCUGGCAGGGUCUCCCUGCCCACUGGGCUGUUCCAGACCUGUGAUACUGUGUUUGUAUGUUGAUAUCCCAUGUUGGAAUUCUCGGGUGCCAA", "RBNS enrichment (R)": 0.643}
{"Strand": "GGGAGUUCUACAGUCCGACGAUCACUUGAGAGUGUUGCUCUGGUAUUCUGGGUUCUGAAGUCUGGUAUUCUGGUAUUCUGGGUUCAAAAGUAUGACUUGAGAGUGUUGCUCUGGUAUUCUGAGAGUUGCUCUGUGGAAUUCUCGGGUGCCAA", "RBNS enrichment (R)": 0.327}
{"data": "Sample 3", "target": "RING finger protein unkempt homolog, zinc fingers 1-6, GST-SBP tag (UNK, Homo sapiens, UniProt Q9C0B0, residues 30-357)", "method": "RNA Bind-n-Seq", "molecule type": "RNA", "matrix": "in vitro", "concentration": "not given", "setting": "RNA with constant flanks, human-mouse chimeric sites, ends assumed", "reference": "input RNA pool", "reading": "higher = stronger binding", "Target sequence (chain)": "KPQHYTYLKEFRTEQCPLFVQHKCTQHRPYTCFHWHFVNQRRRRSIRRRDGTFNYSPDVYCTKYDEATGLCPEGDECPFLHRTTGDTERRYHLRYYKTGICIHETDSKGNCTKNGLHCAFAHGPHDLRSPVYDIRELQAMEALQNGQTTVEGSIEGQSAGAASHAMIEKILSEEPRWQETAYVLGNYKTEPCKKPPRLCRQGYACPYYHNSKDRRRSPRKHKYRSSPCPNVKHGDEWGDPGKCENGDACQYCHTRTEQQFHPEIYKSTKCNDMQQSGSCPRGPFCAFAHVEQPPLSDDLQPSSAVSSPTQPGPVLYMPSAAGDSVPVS"}
{"Strand": "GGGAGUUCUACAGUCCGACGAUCUGUGCAUUAUGAUGCUUGAGAUGGUUUUGCAAAAGCAGAAAUCGCUGCAAGGUAAUCACAAUAGAUAAAAGUGGUAUUUUAAACCUUUGAAAUAAAUGGAUGUAACUGUACCUUGGUACACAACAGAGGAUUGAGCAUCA", "bound/input enrichment [ratio]": 0.479}
{"Strand": "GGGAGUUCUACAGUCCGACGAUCAUAGAUGAAAUUGAUGUGGACCAGGAAGGAAUUGCUGAAAUGAUGCUGGAUGAAAAUGCUAUUGCUCAAGUUCCACGCCCUGGCACAUCUUUGAAGCUCCCUGGCACUAACCAAACAGGACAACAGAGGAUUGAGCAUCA", "bound/input enrichment [ratio]": 0.22}
{"Strand": "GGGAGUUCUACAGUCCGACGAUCUAAAUUAGGGCUGCCGUUUUCUGUUUCUCCCUGGGCUGCGGAAAGCCAGGCGGUUUUAUCUAGUUUGUACAAGGCUGCUGGUGUUCCCUCUUUUUUUCCACGAGGGUGUUUUUGGCUGCACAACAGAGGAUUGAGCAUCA", "bound/input enrichment [ratio]": 0.866}
{"Strand": "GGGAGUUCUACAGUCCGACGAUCUCAACAGACAACAUCAAAUACCAGCCUAAGGGGGGUCAGGUACAAAUUGUUACUAAGAAAAUAGACCUAAGCCAUGUGACAUCCAAAUGUGGCUCUCUGAAGAACAUCCGCCACAGGCCACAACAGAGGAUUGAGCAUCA", "bound/input enrichment [ratio]": 0.498}
{"Strand": "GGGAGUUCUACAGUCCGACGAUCCUGGCCUGGCCCUCCCCAGGGGCCUCCUUUCGUAUAGUAACUGUCAGUGCAUCAGAUACUUUCAGCUGCAACUCCCUACUGGGUGGGGCACCCAUUUCAGGCAGAAGUUGGUGCCCCCCUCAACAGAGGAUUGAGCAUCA", "bound/input enrichment [ratio]": 0.0948}
{"Strand": "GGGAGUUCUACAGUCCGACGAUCAGCACAACCCCAGCAAAGCUAAGAAAUCCUUGCACAAGUGAACAGAACUGCACCAGCCCAUUUAGCUACAAAAAUGUGCUUAGUCUUACUGACAGAGGAGAGUUUUUCAAUGAACUUGUUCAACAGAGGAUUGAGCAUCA", "bound/input enrichment [ratio]": 1.44}
{"Strand": "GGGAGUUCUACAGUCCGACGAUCGAUAAGAAAAGCUUGUUGGAGACCCGAUUGCACAUCACUGGUAGAGACCUGAGGUGUCAAAUAGCUGAAACUUUCGGAUUUCAAGAAAAUUACAUCAAGAUCGUAAUAAAUAAGAAACAGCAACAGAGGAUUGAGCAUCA", "bound/input enrichment [ratio]": 0.299}
{"Strand": "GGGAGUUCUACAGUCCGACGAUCCUGGCACUCUAUCAGAUAUAUUAAUUUUUUAAUGUAGAUGUAAUUUUAAAAAUGAAUGGCUACUUUACGUGAUAGAUUAGGCUCUUACUAUAUAUGUGUACAUAUGUAUAUAUAUAUAUACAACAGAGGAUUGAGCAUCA", "bound/input enrichment [ratio]": 2.31}
{"data": "Sample 4", "target": "Interferon regulatory factor 7, full length, phosphomimetic (IRF7, Homo sapiens, UniProt Q92985, residues 1-503, S471D/S472D/S475D/S476D/S477D/S483D/S484D/S487D)", "method": "protein-binding microarray", "molecule type": "double-stranded DNA, one strand shown", "matrix": "in vitro", "concentration": "2200 nM top", "setting": "60-bp whole probe", "together with": "salmon DNA 0.4 mg/ml", "reference": "random background probes", "reading": "higher = stronger binding", "all sequences stand within": "GCCTAGCAC … GTCTTGATTCGCTTGACGCTGCTG", "Target sequence (chain)": "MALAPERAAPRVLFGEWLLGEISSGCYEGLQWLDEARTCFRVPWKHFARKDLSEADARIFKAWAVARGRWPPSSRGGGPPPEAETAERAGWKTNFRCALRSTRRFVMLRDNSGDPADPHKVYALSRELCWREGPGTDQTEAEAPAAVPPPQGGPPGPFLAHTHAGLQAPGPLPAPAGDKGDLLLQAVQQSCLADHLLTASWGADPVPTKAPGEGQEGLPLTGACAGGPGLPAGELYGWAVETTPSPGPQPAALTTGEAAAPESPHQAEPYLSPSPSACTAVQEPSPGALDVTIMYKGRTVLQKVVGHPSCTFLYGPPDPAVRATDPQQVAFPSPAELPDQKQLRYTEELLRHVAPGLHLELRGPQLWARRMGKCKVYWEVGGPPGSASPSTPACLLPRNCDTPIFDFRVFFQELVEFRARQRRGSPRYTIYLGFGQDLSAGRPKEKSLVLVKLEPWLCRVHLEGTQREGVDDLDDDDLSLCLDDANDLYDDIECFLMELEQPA"}
{"Strand": "TCAGTTCCCTATTTAAGACTGTGCTAG", "fitted relative affinity [z-score]": 2.41}
{"Strand": "TCATCTAAAAAGTCTCTGACTGTGCTA", "fitted relative affinity [z-score]": -0.38}
{"Strand": "TTAGAACTGAATCTCGATTAGTGCTAG", "fitted relative affinity [z-score]": -0.385}
{"Strand": "TTAGATATCAGTATCGATTCGTGCTAG", "fitted relative affinity [z-score]": 1.24}
{"Strand": "GACGGTTTACTTTTCCTGACGTGCTAG", "fitted relative affinity [z-score]": 2.33}
{"Strand": "TTAGGTTTCGGAATCGGTTAGTGCTAG", "fitted relative affinity [z-score]": 6.3}
{"Strand": "GAAGGTATCCTTATCCTGACGTGCTAG", "fitted relative affinity [z-score]": 0.563}
{"Strand": "GACGATTTCAGTCTCAAGACGTGCTAG", "fitted relative affinity [z-score]": 0.564}
{"Strand": "AATTTGAGAACGGAAACCAAGTGCTAG", "fitted relative affinity [z-score]": -0.291}
{"Strand": "GACGGACGGGGTTTCGGGACGTGCTAG", "fitted relative affinity [z-score]": 0.898}
{"Strand": "TCATTTTGGTTTCTGGTACTGTGCTAG", "fitted relative affinity [z-score]": 4.5}
{"Strand": "TTAGGTCTCGGATTCGGTTAGTGCTAG", "fitted relative affinity [z-score]": 2.07}
{"Strand": "TCAAGTTTTAATAACACACTGTGCTAG", "fitted relative affinity [z-score]": -0.078}
{"Strand": "TCATGACTGGAGTCTGGAACTGTGCTA", "fitted relative affinity [z-score]": -0.11}
{"Strand": "TTAGATTTCGGGTATCGAATAGTGCTA", "fitted relative affinity [z-score]": 2.35}
{"Strand": "GACGAACTGAGACTGGAGATGTGCTAG", "fitted relative affinity [z-score]": -0.498}
{"Strand": "CTTGTTTCCAGTATATTTAAGTGCTAG", "fitted relative affinity [z-score]": 2.72}
{"Strand": "GACGGTCTCCTTATCCTAACGTGCTAG", "fitted relative affinity [z-score]": 1.15}
{"Strand": "GACGGTCTCCTTAACCTGACGTGCTAG", "fitted relative affinity [z-score]": 0.722}
{"note": "Excerpt of the above (sample 1):"}
{"Strand": "GACGCATA", "E-score": 0.165}
{"Strand": "CCACCAAC", "E-score": -0.135}
{"Strand": "AAACCCTT", "E-score": 0.0807}
{"Strand": "ATGCTATC", "E-score": -0.102}
{"Strand": "AGGGGCAA", "E-score": -0.138}
{"Strand": "ATGTTGTC", "E-score": -0.0251}
{"Strand": "CAAGAAAA", "E-score": -0.161}
{"Strand": "TAATCACA", "E-score": -0.2}
